Experimental data from different studies.
Every numbered part comes from another study and shows a few of its results, in no order. Positions count from the first letter of the parent shown.

Block 1
Target: CCNA1, cyclin fold, Cln2 fusion (human)
Technique: yeast growth competition, sequencing
Sample: yeast
Notes: weak parent motif
Relative to: not given
Direction: higher = stronger binding
Endpoint: normalised enrichment score
Starting sequence: INSM1 docking peptide (human); PKAIRKLHFEDEV
PKAIRKLHFEDKV [E12K]: 0.696
PKAIQKLHFEDEV [R5Q]: 0.156
PKAIRKEHFEDEV [L7E]: 0.153
PKAIRKLHFEDTV [E12T]: 0.634
PKAIRKLHFTDEV [E10T]: 0.391
PLAIRKLHFEDEV [K2L]: 0.148
PKAIRKIHFEDEV [L7I]: 0.406
PKDIRKLHFEDEV [A3D]: -0.409
PKAERKLHFEDEV [I4E]: 0.018

Block 2
Target: Ras GTPase-activating protein-binding protein 1, C-terminal RGG region (G3BP1, Homo sapiens, UniProt Q13283)
UniProt Q13283, sequence (whole entry, looked up): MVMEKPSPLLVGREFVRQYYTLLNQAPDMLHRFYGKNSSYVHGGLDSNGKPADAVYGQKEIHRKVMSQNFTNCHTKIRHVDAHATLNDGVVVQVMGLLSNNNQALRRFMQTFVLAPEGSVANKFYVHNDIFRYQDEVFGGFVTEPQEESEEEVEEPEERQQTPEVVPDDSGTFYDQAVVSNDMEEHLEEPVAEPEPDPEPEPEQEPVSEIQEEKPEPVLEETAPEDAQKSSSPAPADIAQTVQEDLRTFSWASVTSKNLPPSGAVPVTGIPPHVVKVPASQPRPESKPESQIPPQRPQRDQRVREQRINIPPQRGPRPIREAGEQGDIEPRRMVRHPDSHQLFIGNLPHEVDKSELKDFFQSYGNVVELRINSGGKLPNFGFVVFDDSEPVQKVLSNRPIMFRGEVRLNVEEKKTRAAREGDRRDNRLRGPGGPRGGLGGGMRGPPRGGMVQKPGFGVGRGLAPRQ
Technique: RNA Bind-n-Seq
Form: RNA
Sample: in vitro
Concentration: 1 µM
Notes: whole 134-nt RNA, ends assumed
Added: 150 mM KCl
Relative to: input library
Direction: higher = stronger binding
Endpoint: log2 enrichment
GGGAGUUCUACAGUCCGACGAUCUGGGAGGUGGAUUUUGUUUAUUUUUUUAGCUCAUUUCCAGGGGUGGGAAAUUUUUUUUAAUAUGUGUCAUGAAUAAAGUUGUUUUUGAAAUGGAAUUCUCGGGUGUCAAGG: 2.63
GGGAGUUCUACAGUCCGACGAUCAGUCCUGUGCUACACAUCGUAUGUACCGAAUCGGAAAAAAAGGUUUUUUUGGAAAGGAAAGUAUUAUGUUACGCCGUUCGGAUCUGCACUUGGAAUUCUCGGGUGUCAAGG: -2.42
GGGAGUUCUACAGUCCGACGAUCACCAUGCAGGUGGGCAUCUUUGGGAAGUGGGGCAAGGGGAGGAUAGGGAGGGGGGUAACACUUUGGGAACAGGUGGUCCCAGGUCGUUUCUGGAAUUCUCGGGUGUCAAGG: -1.06
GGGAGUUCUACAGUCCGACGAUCUGGGGUAGACCAGUUCCAUGGCACUGAAUAUGUGUGCUGCCCUCAGACAAAGAUUAUUGGAUCUGUGUCAAAAGAAGAGGAAGAGGAAGAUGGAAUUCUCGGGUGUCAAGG: -1.5
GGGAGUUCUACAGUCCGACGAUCCACAGACAACACGCACCCACACAGACACAGAAAGAAGGGGUUGGGAUGGGGACAGGGUGCACAGCAGGGCGGGGUAGGACCCCAGCCCCUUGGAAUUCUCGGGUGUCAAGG: -0.348
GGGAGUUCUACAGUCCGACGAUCAGUCCUGUGCUACACAUCGUAUGUACCGAAUCGGGAGGGUUUUUUUGGGAAAAAGGGAAAGUAUUAUGUUACGCCGUUCGGAUCUGCACUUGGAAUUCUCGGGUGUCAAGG: -0.515
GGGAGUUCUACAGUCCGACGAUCCUCAAGUCCUGUGCUACACAUCGUAUGUACCGAAUCGGUUUGGUUUUUGGUGGAAAGUAUUAUGUUACGCCGUUCGGAUCUGCACUUCCAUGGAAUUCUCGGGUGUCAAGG: -0.998
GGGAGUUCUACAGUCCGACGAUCCAAGUCCUGUGCUACACAUCGUAUGUACCGAAUCGGGAAAAAGGGAGGGAAAGGGAAAGUAUUAUGUUACGCCGUUCGGAUCUGCACUUCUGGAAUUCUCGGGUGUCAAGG: 1.77
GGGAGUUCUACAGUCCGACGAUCAAGAUUUAGAGAUGAAUUAAAUUUAAUUAGGGGUUGCUAAGAAGCGAGCACUGACCAGAUAAGAAUGCUGGUUUUCCUAAAUGCAGUGAAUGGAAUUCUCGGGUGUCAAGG: -1.48

Block 3
Target: ABI1, truncated, D143A, DHFR fusion (Arabidopsis thaliana)
Technique: DHFR PCA, deep sequencing
Sample: yeast
Notes: methotrexate growth selection, single substitutions
Added: (+)-ABA 0.39 µM
Relative to: wild-type fitted maximum
Direction: higher = stronger binding
Endpoint: relative binding score
Starting sequence: PYL1, truncated, DHFR fusion (Arabidopsis thaliana); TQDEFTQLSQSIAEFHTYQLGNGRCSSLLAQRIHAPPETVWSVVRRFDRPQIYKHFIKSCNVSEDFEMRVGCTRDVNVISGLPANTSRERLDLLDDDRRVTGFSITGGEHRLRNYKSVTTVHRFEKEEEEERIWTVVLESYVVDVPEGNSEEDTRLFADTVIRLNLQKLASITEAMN
S150D: 27.1%
L8T: -5.21%
E139R: 13.4%
L91S: -21.2%
L91C: 2.63%

Single results of other studies
PhoQ, residues 284 288 289 292 302 303 AEGLLW
fold induction (PhoP, residues 12 14 15 18 19 LYHSL (Escherichia coli, UniProt P23836); Sort-seq, measured: YFP reporter; E. coli; PhoQ-PhoP variant library, added: 10 µM Mg2+; relative to: high Mg2+ state, higher = stronger signaling): 5.39
